Results collected from several papers.
A part holds a random share of what one study measured.

Set 1 — technique: RNA Bind-n-Seq; form: RNA; medium: in vitro; tested at: not given; reference: input RNA pool; direction: higher = stronger binding
Target: RING finger protein unkempt homolog, zinc fingers 1-6, GST-SBP tag (UNK, Homo sapiens, UniProt Q9C0B0, residues 30-357)
UniProt Q9C0B0, sequence (30-357, looked up): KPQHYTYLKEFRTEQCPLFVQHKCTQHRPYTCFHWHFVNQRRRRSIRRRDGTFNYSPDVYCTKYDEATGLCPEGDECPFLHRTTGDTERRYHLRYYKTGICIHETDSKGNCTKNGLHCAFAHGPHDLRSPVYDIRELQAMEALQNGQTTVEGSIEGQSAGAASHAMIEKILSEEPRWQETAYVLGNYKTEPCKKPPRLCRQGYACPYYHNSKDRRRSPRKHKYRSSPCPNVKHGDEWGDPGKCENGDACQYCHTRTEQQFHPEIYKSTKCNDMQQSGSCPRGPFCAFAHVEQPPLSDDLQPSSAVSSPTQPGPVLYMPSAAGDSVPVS
Notes: RNA with constant flanks, human and mouse sites, ends assumed
Sequence | bound/input enrichment [ratio]
GGGAGUUCUACAGUCCGACGAUCCUGGUGGCUGGUAGUAUAAUUGGAGCGUUGUUGGGCGCGCCCAUGGGAAGCUUGCUGAUGGCCCUGGAGAAGUACUCCGGUGAGACGGUUCAGGAGAGAAGGCAGAAGGAAUGGAAGGCCCAACAGAGGAUUGAGCAUCA | 0.464
GGGAGUUCUACAGUCCGACGAUCCUGAAUAGCAAUAAAUAUUUUCCCAGCAGGGUUAGCAUAAAAGAAUCAUCUGUAGCAAAACUAGGAUCAGUGUGCCGUAGGAUUUAUAGAAUAUUUUCACAUGCCUAUUUUCAUCACCGGCAACAGAGGAUUGAGCAUCA | 34
GGGAGUUCUACAGUCCGACGAUCCGCGGAUUUUUUUUGAGGAUUCCCCCCCUCACCUUUUUUCAUUUUUCUCCCCUCGGGGCUCUUUUGUGACUCUCCCCAACCCCAACCCUCCGCCUUUAUGUUCGCCCAGACCUCCACCCGCAACAGAGGAUUGAGCAUCA | 2.08
GGGAGUUCUACAGUCCGACGAUCAGGUCUGACCGAGUUAAGAGCGUGGAUUUGCAUCCCACAGAGCCAUGGAUGUUGGCUAGUCUUUACAAUGGCAGUGUGUGUGUUUGGAAUCAUGAAACUCAGACACUGGUGAAGACGUUUCAACAGAGGAUUGAGCAUCA | 0.102

Set 2 — technique: universal PBM; form: double-stranded DNA, one strand shown; medium: in vitro; tested at: not given; direction: higher = stronger binding
Target: Sal-like protein 4, full length isoform B (SALL4, Homo sapiens, UniProt Q9UJQ4-2, residues 1-616)
Notes: 8-mer, flanks averaged, mean of replicates
Sequence | E-score
CAGCAGAG | -0.272
CCAGTCGC | -0.263
TCCGCCCA | -0.201
CTCGACAG | -0.129
ACCCGAGC | -0.115
TACAGGGA | -0.0682

Set 3 — technique: protein binding microarray; form: double-stranded DNA, one strand shown; medium: in vitro; tested at: not given; reference: not given; direction: higher = stronger binding
Target: Histone acetyltransferase KAT6A, winged helix 2, GST fusion (KAT6A, Homo sapiens, UniProt Q92794, residues 85-181)
Notes: 8-mer, flanks averaged, mean of 2 arrays, mostly near background
Construct (chain): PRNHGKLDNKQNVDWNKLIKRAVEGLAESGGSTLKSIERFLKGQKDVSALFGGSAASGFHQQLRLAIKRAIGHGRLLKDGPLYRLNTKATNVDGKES
Sequence | E-score
TAAAACAA | 0.14
CGAGGGTC | 0.0387
ATTTCTCA | 0.0698
AACGAGCC | 0.0702
CCGGCGAA | 0.192
AATGTAGA | -0.0758

Single results of other studies
Molecule | target | test | system | conditions | how to read | measurement | result
PhoQ, residues 284 288 289 292 302 303 STVVAA | PhoP, residues 12 14 15 18 19 NFCKL (Escherichia coli, UniProt P23836) | Sort-seq, item: YFP reporter | E. coli | PhoQ-PhoP variant library, with: 10 µM Mg2+ | reference: high Mg2+ state, higher = stronger signaling | fold induction | 1.37

For quick reference, copied from above (set 2):
Sequence | E-score
ACCCGAGC | -0.115
CTCGACAG | -0.129
TACAGGGA | -0.0682
